Assay results pooled from the literature.
Compare with care: the assays were run in different laboratories. ± gives the spread as reported.
Target: Cytochrome P450 3A4 (CYP3A4, Homo sapiens, UniProt P08684)
Chain of UniProt P08684 (whole entry, looked up): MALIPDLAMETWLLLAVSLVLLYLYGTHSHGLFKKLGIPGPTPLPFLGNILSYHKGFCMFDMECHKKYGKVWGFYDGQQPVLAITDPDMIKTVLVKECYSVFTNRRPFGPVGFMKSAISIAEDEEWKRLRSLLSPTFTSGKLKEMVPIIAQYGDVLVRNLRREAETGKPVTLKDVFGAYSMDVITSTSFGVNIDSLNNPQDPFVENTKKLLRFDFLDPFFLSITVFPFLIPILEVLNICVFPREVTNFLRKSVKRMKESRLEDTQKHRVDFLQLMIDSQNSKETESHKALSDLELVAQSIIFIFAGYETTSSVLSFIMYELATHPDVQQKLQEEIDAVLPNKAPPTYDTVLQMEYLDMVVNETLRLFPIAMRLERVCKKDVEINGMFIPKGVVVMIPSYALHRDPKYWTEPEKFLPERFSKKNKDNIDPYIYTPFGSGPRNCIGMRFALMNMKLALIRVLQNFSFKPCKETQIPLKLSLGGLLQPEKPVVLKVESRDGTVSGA

CCC[C@@](N)(CO)CCc1ccc(OCCCCCC(C)C)cc1 — IC50 (enzyme activity, inhibitor; with: testosterone): 17.6 µM
CC(C)CC(=O)OC[C@H]1O[C@@](C#N)(c2ccc3c(N)ncnn23)[C@H](O)[C@@H]1O — intrinsic clearance (metabolic stability; recombinant enzyme; 1 µM): 6.37 ± 0.0905 µL/min/pmol
CSc1ccccc1C(=O)NCCn1cc(C(=O)NCc2cccc(C)n2)c(=O)c2cc3c(cc21)OCO3 — IC50 (enzyme activity, inhibitor; human liver microsomes; 20 min, no NADPH preincubation, with: midazolam 5 µM): 47.5 µM
O=c1[nH]ncn1-c1ccc(N2CCN(c3ccc(OCC4COC(Cn5cncn5)(c5ccc(Cl)cc5Cl)O4)cc3)CC2)cc1 (centres unmarked) — IC50 (inhibitor; human liver microsomes; with: midazolam): 0.0189 µM
CS(=O)(=O)Nc1ncn(-c2cc(F)c(COc3ccc(OS(=O)(=O)F)cc3)c(F)c2)n1 — IC50: > 50 µM
OCc1ncc2n1-c1ccc(Cl)cc1C(c1ccccc1F)=NC2 — Cmax (human, plasma; 2 mg, alone, arithmetic mean): 3.73 ng/mL
O=C(Nc1ccc(N2CCC3(CCC3)CC2)c(C(F)(F)F)c1)c1ccc(C(=O)N2C[C@@H]3C[C@H]2CO3)nc1 — inhibition (10 µM, 20 (unit not given)): 0%
CNCCN1C(=O)[C@H](OC(C)=O)[C@H](c2ccc(OC)cc2)Sc2ccccc21 — kinact/KI (inactivator): 550 ± 117 M⁻¹ s⁻¹
Cc1ncc2n1-c1ccc(Cl)cc1C(c1ccccc1F)=NC2 — Vd/F (human, plasma; oral, 2 mg, day 1, alone, arithmetic mean): 446 L
CSc1ccccc1C(=O)NCCn1cc(C(=O)NCc2cccc(C)n2)c(=O)c2cc3c(cc21)OC(F)(F)O3 — IC50 (enzyme activity, inhibitor; human liver microsomes; 20 min, 30 min NADPH preincubation, with: midazolam 5 µM): 47.9 µM
CCC[S+]([O-])c1ccc2[nH]c(NC(=O)OC)nc2c1 (centres unmarked) — inhibition (inhibitor; 10 µM, pH 7.4): 5%

Some of these lines once more:
CCC[S+]([O-])c1ccc2[nH]c(NC(=O)OC)nc2c1 (centres unmarked) — inhibition (inhibitor; 10 µM, pH 7.4): 5%
O=C(Nc1ccc(N2CCC3(CCC3)CC2)c(C(F)(F)F)c1)c1ccc(C(=O)N2C[C@@H]3C[C@H]2CO3)nc1 — inhibition (10 µM, 20 (unit not given)): 0%
